Assay results of several laboratories.
Every numbered part comes from another study and shows a few of its results, in no order. Changes are numbered by the printed parent chain.

Series 1 — method: protein binding microarray; form: double-stranded DNA, one strand shown; sample: in vitro; concentration: not given; baseline: not given; reading: higher = stronger binding
Target: Histone acetyltransferase KAT6A, both winged helices, GST fusion (KAT6A, Homo sapiens, UniProt Q92794, residues 1-181)
Setting: 8-mer, flanks averaged, mean of 2 arrays, mostly near background
Target sequence (chain): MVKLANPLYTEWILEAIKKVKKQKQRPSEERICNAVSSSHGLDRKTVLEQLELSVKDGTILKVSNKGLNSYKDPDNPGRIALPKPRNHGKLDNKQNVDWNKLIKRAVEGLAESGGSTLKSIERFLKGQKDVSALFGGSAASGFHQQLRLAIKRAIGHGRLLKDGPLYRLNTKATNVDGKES
Oligonucleotide | E-score
AACGAGTC | -0.0669
CAAGGGTA | -0.137
GAATGCCA | -0.0475
AATAGTCA | -0.142
GAGCGCTC | 0.342

Series 2 — target: CCNA2, cyclin fold, Cln2 fusion (human); method: yeast growth competition, sequencing; sample: yeast; setting: strong parent motif; baseline: not given; reading: higher = stronger binding
Parent: GMNC docking peptide (human); KNAKRNLSSEFAN
Change | normalised enrichment score
KNAKRNLSSEQAN [F11Q] | 0.58
KNAKRNHSSEFAN [L7H] | 0.501
KNAKRNWSSEFAN [L7W] | 0.427
KNHKRNLSSEFAN [A3H] | 1.58
KNKKRNLSSEFAN [A3K] | 0.993
KNAKRNLSSEFKN [A12K] | 4.4
KNDKRNLSSEFAN [A3D] | 0.641

Series 3 — method: DHFR PCA, deep sequencing; sample: yeast; added: (+)-ABA 2500 µM; baseline: wild-type fitted maximum; reading: higher = stronger binding
Target: ABI1, truncated, D143A, DHFR fusion (Arabidopsis thaliana)
Setting: methotrexate growth selection, single substitutions
Parent: PYL1, truncated, DHFR fusion (Arabidopsis thaliana); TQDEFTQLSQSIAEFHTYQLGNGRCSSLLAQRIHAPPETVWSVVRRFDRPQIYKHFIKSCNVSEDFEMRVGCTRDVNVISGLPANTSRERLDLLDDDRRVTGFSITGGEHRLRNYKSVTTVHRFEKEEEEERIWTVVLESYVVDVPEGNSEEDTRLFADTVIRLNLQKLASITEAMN
Change | relative binding score
E125Q | 100%
T173I | 99%
S27W | 71.8%
V143A | 90%

Other studies, line by line
Substance | target | test | system | conditions | scale | measurement | result
PhoQ, residues 284 288 289 292 302 303 NSMLDC | PhoP, residues 12 14 15 18 19 HLGGL (Escherichia coli, UniProt P23836) | Sort-seq, measured: YFP reporter | E. coli | PhoQ-PhoP variant library, added: 10 µM Mg2+ | baseline: high Mg2+ state, higher = stronger signaling | fold induction | 15.2

Excerpt of the above (series 1):
Oligonucleotide | E-score
AACGAGTC | -0.0669
CAAGGGTA | -0.137
